Measured values of several laboratories.
A part holds a random share of what one study measured. Substitutions count along the parent as printed.

Series 1
Target: RING finger protein unkempt homolog, zinc fingers 1-6, SBP tag (UNK, Homo sapiens, UniProt Q9C0B0, residues 30-357)
Sequence of UniProt Q9C0B0 (30-357, looked up): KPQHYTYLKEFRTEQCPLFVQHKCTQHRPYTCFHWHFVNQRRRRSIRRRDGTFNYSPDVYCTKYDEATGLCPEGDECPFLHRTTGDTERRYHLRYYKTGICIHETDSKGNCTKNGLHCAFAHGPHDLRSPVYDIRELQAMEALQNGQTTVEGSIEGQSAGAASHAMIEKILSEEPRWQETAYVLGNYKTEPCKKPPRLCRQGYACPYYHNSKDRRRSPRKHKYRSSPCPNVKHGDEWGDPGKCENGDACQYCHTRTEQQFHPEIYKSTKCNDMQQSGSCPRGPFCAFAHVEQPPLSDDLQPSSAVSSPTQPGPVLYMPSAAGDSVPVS
Method: RNA Bind-n-Seq
Form: RNA
Matrix: in vitro
Tested at: 100 nM
Notes: RNA with constant flanks, ends assumed
Baseline: input RNA pool
Reading: higher = stronger binding
Sequence | bound/input enrichment [ratio]
GGGAGUUCUACAGUCCGACGAUCAUGCCGUUUGUUUUUAAUUUCAAGCAAAAUCUUACUGUACUUGAAUGUGCCCUGUUUUGUCCGCACACCCCGACUUGCUGUAACUGUACUCAUGUCCCAGUAUGUACGUUCUUUCUAUGACAACAGAGGAUUGAGCAUCA | 0.455
GGGAGUUCUACAGUCCGACGAUCCAUCUCUCAUUUUAUAUGUCCAGAAAUGGCUUUGAAUUUUAAGCAAUUACCCGUUUUAAUCCGCUCUGCCCUCAUGAAGUAUUAUUAUAAUUCACCAUAAACAGCUAUCUGUCUGAAUUACAACAGAGGAUUGAGCAUCA | 0.659
GGGAGUUCUACAGUCCGACGAUCUUUUAUUGAUCAGGUCUGUAAAUGUGUACUAAAAAAAUCAGAGUUUAUUUAUAAACAAAACCGUUUAUUUAAAGAGAAGGUCUCUUCCUUAUUGAUAUCAUGGUAUGCAUUAAUUCCAUUCAACAGAGGAUUGAGCAUCA | 0.174

Series 2
Target: Interferon regulatory factor 5, full length, phosphomimetic (IRF5, Homo sapiens, UniProt Q13568-2, residues 1-514, K96S/S451D/S453D/S456D/S462D)
Method: protein-binding microarray
Form: double-stranded DNA, one strand shown
Matrix: in vitro
Tested at: 250 nM
Notes: 60-bp whole probe
Together with: salmon DNA 0.4 mg/ml
Baseline: random background probes
Reading: higher = stronger binding
All sequences stand within: GCCTAGCAC … GTCTTGATTCGCTTGACGCTGCTG
Sequence | log fluorescence [z-score]
TCATCTCTGCTCCTTCTGACTGTGCTA | 0.514
GACGGTTCTCTTTTCCTGACGTGCTAG | 0.185
TCACAAATGCCCTCTCCAACTGTGCTA | -0.172
TTATTTAGGATAGAACTATAGTGCTAG | 0.301
GACAATATCAGTATCGAGACGTGCTAG | 3.64
TCACCTTTCAATCCTAGACTGTGCTAG | 1.24
GTAGGACTGGGGACTGGGTTAGTGCTA | -0.577
GACGATCTCCGTCTCGAGACGTGCTAG | -0.0213
GACGATATCAGTCTCGAGCCGTGCTAG | 1.07
GACGGTATCGACACTGGGAACGTGCTA | 2.04
CTTCCCCTCTCTTTCCAACTGTGCTAG | 0.3
TTAGGACTGGGGTCTGGGTTAGTGCTA | -0.746
TTTGGTTCCCTTTTCCTTTAGTGCTAG | 0.985
TTAGGTCTCGTTATCCTTTAGTGCTAG | 0.276
ACCATTTTTTTTCACTATTGGTGCTAG | 2.38
GATGGTATCGGTTTCGGGACGTGCTAG | 9.02
GACGGTTACGGTCTCGGGACGTGCTAG | -0.194
TTAGGTATGCTTCTCCTTTAGTGCTAG | -0.224
TTAGGTCTCGGGCTGGGTTAGTGCTAG | -0.312

Series 3
Target: Histone acetyltransferase KAT6A, both winged helices, GST fusion (KAT6A, Homo sapiens, UniProt Q92794, residues 1-181)
Method: protein binding microarray
Form: double-stranded DNA, one strand shown
Matrix: in vitro
Tested at: not given
Notes: 8-mer, flanks averaged, mean of 2 arrays, mostly near background
Baseline: not given
Reading: higher = stronger binding
Target sequence (chain): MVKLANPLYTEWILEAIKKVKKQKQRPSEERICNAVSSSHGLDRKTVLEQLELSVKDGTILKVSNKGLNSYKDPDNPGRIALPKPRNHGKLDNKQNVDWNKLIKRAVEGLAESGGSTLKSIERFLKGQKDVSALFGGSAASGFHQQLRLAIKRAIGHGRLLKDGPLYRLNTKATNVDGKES
Sequence | E-score
AGGCTAAA | 0.00385
AAATTAAT | -0.115
ACCGGTTC | 0.113
TAATTTCA | -0.0317
ACCCGCGC | 0.353
CCACCGTC | 0.0737
GCGATGGA | 0.167
TATAGAAA | -0.0207
ACGACTCA | -0.168
CTCCGCCA | 0.00498
CCGGCGCA | 0.345
ACGAATGA | -0.0576
ACGTGAGA | -0.166
ATACGATC | -0.0574
CGCTATAG | 0.144
CTCATACC | -0.142
CATGACAC | -0.00827
GGCCCCAA | 0.0226

Series 4
Target: RNA binding protein fox-1 homolog 2, RRM domain, GST-SBP tag (RBFOX2, Homo sapiens, UniProt O43251-10, residues 100-194)
Method: RNA Bind-n-Seq
Form: RNA
Matrix: in vitro
Tested at: 365 nM
Notes: natural RNA segment, single round, ends assumed
Baseline: no-protein control
Reading: higher = stronger binding
Target sequence (chain): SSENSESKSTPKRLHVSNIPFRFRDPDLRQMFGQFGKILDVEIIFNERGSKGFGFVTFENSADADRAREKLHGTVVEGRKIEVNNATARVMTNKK
Sequence | RBNS enrichment (R)
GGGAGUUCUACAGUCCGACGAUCAAACUAAAGGCAAUAACAGAAGCUGCUCUCAGAGCCUGACUGUGCACAAAACACUAGUGAAGCCUGCUGAACUAAUUCUGCCUCUGGAAAUCUUUUCUGGUUCUUUACAGUGGAAUUCUCGGGUGCCAA | 0.228
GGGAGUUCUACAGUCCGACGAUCGAUCAGCUGCCUGUGGUUGGGACAGGGCACACCACCUUCCCUCAGACGGUCUUGCUAAGUAUAUGACUGGGAGAGUUUGGUCAUUUUUGUGUACCCUAUGGUGGGAAUGUUGGAAUUCUCGGGUGCCAA | 1.28
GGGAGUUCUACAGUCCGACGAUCAGCCCAGGUCCUCAAAGACACAGGAGGCUGCUGAUAUAGGCUGUUCCAGAGAUCCCUGUCUAGUCCCUGUGCAUCUCUUGGCAGUGACCUACUAUUUAUGAGGCCUCUGUUGGAAUUCUCGGGUGCCAA | 0.477
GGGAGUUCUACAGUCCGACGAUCCUUGGUCUCUCUGCAGUUCUGGGGACCCAACCAAGAGUCACGUGUCUAGGCCAGUGCUUUACCACUUAGCUAUACCCAGUCCUGUGUUACCUUGCUUUUGUGAACACGUCUGGAAUUCUCGGGUGCCAA | 0.304
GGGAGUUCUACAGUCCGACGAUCGGCUUACUGGGUUUAGAAUGGAAACAACAUUCACUACUGUUCAGUGCAUGCUGGUACAAUCUCUUAGAAACUCCUAAGAUGGUUUGGGAAAAUACAGUGCAAUUAGUGAUUGGAAUUCUCGGGUGCCAA | 0.759
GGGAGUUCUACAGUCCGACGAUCUAGGGCUAUGACUAAUAUUUCAGGCCAUUUCCGGUGAAAGAAACUUAGUUUUACAAGAAAAACCAUUUGCUACUGAAUGCUUAAACUAAUUUUAGUGUUUAAUGUUACAUUGGAAUUCUCGGGUGCCAA | 0.536
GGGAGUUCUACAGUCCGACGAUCACUCGGGACGUCUUCAUUGAAGAUUCACUUACAAAGGAAUGUUUCACUAAAUAAAAGAAAACCAGAAUCUUCUGCUGUCUGGUCCCCUACGGAGGGAGCGGGGAGCGGGGUGGAAUUCUCGGGUGCCAA | 0.456
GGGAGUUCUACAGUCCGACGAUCCGAGUUUCGUAUUAACCUUUCCUGUCCAUGUAACAACUUCAUGACCAUUACUGCAUUGUCAAAUUCCUACUGACGACAUUAUAACUGUACGGGAGCUUAACUUUAUAAGGUGGAAUUCUCGGGUGCCAA | 0.496

Series 5
Target: CCNB2, cyclin fold, Cln2 fusion (human)
Method: yeast growth competition, sequencing
Matrix: yeast
Notes: weak parent motif
Baseline: not given
Reading: higher = stronger binding
Starting sequence: SAMHD1 docking peptide (human); ASKSRVQLFKDDP; partner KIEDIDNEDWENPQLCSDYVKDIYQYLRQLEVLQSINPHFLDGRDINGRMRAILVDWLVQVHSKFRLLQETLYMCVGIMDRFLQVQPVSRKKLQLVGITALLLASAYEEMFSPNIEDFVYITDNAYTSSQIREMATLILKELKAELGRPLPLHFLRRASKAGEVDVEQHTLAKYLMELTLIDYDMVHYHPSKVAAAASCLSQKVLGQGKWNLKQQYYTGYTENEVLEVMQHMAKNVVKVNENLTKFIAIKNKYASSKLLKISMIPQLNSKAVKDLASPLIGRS
Variant | normalised enrichment score
ASKSRVQLDKDDP [F9D] | 0.781
ASKKRVQLFKDDP [S4K] | 0.207
ASKSRVQLFKDNP [D12N] | -0.172
ASKSSVQLFKDDP [R5S] | -0.579
ASKSRVQLFCDDP [K10C] | 0.321
ASKSRVQLFRDDP [K10R] | 0.315
ADKSRVQLFKDDP [S2D] | 0.00816
ASKSRVQLFTDDP [K10T] | -0.068
ASKSRVQLFKHDP [D11H] | 0.199
APKSRVQLFKDDP [S2P] | 0.427
ASKSWVQLFKDDP [R5W] | 0.324
ASKYRVQLFKDDP [S4Y] | 0.421
ASWSRVQLFKDDP [K3W] | 0.161
ASKSRVQLCKDDP [F9C] | 0.0894
ASKDRVQLFKDDP [S4D] | 0.0843
ASKSRVQLAKDDP [F9A] | 0.0693
ASKSRVYLFKDDP [Q7Y] | 0.269
ASKSHVQLFKDDP [R5H] | -0.0616
ASTSRVQLFKDDP [K3T] | -0.161
ATKSRVQLFKDDP [S2T] | 0.00724
ASKSRVQLIKDDP [F9I] | 0.819
ASKIRVQLFKDDP [S4I] | 1.19
ASKSRFQLFKDDP [V6F] | 0.418
ASKSRVQLFKDEP [D12E] | 0.238
ASKSLVQLFKDDP [R5L] | -0.203

Series 6
Target: CRIPT, C-terminal peptide
Method: DHFR complementation, deep sequencing
Matrix: yeast
Notes: single substitutions, model-inferred values
Baseline: wild type
Reading: higher = weaker binding
Starting sequence: ERBIN, PDZ domain 1 (human); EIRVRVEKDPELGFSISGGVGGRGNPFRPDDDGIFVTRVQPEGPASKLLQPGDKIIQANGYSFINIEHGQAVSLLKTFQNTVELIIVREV; partner TKNYKQTSV
Variant | binding free energy change
Q40H | 0.294 kcal/mol
G33M | 1.15 kcal/mol
I66A | 0.196 kcal/mol
Q40T | 0.265 kcal/mol
I64P | 1.21 kcal/mol
F14C | -0.93 kcal/mol
N80V | 0.153 kcal/mol
D31I | 1.11 kcal/mol
I2S | 0.258 kcal/mol
G43T | 0.85 kcal/mol
F35R | 1.13 kcal/mol
A71K | 1.5 kcal/mol
E67C | 0.143 kcal/mol
R5M | 0.000208 kcal/mol

For quick reference, copied from above (series 6):
Variant | binding free energy change
Q40H | 0.294 kcal/mol
R5M | 0.000208 kcal/mol
A71K | 1.5 kcal/mol
E67C | 0.143 kcal/mol
I64P | 1.21 kcal/mol
G43T | 0.85 kcal/mol
